Experimental data from different studies.
Lines come from different studies, so protocols differ. Several values in a cell are separate wells, animals, samples, runs or records. Numbers after ± are the reported error.
Chain of UniProt Q62351 (whole entry, looked up): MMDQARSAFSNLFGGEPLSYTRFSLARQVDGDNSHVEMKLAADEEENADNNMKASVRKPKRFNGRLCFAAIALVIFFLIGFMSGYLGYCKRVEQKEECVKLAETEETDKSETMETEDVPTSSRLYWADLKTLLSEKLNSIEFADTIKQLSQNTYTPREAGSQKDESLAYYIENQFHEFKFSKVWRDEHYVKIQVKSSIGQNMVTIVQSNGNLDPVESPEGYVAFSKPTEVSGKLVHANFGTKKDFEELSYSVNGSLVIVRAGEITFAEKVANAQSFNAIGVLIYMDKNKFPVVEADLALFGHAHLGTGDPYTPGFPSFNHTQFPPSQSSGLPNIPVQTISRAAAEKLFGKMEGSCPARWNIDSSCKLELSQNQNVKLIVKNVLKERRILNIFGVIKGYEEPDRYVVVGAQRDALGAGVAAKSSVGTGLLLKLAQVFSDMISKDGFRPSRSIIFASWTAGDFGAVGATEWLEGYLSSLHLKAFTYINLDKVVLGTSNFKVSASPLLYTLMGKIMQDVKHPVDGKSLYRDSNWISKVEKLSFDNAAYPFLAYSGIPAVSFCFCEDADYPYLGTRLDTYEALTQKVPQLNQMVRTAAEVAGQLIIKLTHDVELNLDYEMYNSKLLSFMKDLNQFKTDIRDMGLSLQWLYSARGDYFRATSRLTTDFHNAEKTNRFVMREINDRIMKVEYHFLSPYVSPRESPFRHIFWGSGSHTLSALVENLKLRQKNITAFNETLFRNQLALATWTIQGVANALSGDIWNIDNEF
Chain of UniProt Q99705 (whole entry, looked up): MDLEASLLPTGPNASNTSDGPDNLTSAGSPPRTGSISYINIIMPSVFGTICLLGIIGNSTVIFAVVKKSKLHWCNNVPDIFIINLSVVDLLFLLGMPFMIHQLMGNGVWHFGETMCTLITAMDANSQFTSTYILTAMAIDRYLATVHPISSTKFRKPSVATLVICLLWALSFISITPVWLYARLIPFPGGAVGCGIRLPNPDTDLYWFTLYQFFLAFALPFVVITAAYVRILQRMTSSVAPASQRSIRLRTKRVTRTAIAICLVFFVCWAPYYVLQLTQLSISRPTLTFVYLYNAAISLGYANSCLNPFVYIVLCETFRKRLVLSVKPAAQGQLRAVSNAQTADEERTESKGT
Chain of UniProt Q9P289 (whole entry, looked up): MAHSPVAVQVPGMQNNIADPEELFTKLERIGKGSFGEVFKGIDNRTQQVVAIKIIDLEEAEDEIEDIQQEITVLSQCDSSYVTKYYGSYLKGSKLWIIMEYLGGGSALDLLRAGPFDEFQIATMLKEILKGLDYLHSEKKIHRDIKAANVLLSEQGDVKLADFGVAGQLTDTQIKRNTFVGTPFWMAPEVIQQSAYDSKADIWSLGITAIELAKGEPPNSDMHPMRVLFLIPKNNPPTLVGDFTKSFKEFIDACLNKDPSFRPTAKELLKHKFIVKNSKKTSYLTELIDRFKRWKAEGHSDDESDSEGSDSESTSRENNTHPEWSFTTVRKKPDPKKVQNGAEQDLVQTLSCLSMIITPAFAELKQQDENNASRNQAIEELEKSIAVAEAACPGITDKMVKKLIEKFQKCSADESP
Chain of UniProt P09936 (whole entry, looked up): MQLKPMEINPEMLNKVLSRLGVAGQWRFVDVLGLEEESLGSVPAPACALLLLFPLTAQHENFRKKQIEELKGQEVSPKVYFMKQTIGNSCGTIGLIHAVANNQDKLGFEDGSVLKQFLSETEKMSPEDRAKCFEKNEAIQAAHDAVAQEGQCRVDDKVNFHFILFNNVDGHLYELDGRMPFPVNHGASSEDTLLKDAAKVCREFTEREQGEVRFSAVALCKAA
Chain of UniProt Q16832 (whole entry, looked up): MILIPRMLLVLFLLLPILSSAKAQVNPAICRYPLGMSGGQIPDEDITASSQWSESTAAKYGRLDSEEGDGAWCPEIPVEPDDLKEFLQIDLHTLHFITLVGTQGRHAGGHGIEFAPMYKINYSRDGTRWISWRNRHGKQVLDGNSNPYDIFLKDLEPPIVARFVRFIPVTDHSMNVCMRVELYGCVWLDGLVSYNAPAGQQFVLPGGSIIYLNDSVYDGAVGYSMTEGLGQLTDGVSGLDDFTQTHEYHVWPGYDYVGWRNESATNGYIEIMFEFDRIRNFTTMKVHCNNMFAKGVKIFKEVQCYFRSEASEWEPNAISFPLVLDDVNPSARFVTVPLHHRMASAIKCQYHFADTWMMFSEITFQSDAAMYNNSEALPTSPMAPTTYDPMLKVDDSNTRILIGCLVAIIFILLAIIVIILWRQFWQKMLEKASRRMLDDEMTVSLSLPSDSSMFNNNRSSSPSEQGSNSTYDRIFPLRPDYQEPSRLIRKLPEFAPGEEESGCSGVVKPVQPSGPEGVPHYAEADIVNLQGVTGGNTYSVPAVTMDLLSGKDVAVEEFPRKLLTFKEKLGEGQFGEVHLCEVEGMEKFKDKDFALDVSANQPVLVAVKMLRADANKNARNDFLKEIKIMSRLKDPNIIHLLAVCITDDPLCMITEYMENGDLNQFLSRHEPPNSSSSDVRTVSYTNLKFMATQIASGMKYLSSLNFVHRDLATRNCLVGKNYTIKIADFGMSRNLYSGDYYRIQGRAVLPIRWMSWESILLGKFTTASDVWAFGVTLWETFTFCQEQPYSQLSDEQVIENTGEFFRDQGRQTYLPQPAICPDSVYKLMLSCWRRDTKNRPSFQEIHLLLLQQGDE
Chain of UniProt Q9BXA5 (whole entry, looked up): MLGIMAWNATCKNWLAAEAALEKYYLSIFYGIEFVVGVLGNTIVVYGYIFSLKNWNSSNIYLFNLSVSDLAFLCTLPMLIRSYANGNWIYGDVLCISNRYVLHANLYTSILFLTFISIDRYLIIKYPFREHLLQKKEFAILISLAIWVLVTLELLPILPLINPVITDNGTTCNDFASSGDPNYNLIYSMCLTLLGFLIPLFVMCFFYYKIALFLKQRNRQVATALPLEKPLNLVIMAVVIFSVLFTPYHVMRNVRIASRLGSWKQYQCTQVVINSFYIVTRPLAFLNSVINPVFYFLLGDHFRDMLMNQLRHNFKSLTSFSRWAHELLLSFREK
Chain of UniProt O42275 (whole entry, looked up): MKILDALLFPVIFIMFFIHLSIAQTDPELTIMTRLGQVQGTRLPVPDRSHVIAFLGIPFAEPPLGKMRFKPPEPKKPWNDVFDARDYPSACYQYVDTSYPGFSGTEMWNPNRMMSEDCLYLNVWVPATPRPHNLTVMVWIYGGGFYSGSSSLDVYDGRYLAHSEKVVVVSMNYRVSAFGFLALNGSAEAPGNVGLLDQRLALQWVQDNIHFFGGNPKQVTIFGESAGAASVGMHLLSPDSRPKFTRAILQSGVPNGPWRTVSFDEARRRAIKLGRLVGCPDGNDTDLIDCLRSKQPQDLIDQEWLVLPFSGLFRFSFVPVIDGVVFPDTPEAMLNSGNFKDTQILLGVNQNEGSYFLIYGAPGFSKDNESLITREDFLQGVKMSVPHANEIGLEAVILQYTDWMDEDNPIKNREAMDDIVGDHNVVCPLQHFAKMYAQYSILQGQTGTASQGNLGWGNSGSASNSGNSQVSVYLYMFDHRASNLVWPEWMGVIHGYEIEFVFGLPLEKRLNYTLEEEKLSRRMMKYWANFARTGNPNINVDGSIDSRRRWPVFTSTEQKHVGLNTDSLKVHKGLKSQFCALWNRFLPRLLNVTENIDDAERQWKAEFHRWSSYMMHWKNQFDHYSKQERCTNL
Chain of UniProt P10959 (whole entry, looked up): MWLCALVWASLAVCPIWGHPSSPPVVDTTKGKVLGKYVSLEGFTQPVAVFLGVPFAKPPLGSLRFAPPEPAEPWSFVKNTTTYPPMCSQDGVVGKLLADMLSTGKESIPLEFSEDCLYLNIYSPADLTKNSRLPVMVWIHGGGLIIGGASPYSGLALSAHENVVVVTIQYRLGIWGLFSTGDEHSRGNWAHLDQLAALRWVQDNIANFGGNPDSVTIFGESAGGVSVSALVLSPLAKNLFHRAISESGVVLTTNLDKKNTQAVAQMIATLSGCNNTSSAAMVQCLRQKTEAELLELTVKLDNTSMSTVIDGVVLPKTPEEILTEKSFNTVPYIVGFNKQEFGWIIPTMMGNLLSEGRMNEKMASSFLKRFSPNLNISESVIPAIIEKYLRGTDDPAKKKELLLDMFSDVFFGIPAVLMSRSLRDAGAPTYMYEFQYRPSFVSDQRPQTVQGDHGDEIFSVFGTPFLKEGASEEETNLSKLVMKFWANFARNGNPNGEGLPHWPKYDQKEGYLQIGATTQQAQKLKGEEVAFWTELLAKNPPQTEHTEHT
Chain of UniProt Q92918 (whole entry, looked up): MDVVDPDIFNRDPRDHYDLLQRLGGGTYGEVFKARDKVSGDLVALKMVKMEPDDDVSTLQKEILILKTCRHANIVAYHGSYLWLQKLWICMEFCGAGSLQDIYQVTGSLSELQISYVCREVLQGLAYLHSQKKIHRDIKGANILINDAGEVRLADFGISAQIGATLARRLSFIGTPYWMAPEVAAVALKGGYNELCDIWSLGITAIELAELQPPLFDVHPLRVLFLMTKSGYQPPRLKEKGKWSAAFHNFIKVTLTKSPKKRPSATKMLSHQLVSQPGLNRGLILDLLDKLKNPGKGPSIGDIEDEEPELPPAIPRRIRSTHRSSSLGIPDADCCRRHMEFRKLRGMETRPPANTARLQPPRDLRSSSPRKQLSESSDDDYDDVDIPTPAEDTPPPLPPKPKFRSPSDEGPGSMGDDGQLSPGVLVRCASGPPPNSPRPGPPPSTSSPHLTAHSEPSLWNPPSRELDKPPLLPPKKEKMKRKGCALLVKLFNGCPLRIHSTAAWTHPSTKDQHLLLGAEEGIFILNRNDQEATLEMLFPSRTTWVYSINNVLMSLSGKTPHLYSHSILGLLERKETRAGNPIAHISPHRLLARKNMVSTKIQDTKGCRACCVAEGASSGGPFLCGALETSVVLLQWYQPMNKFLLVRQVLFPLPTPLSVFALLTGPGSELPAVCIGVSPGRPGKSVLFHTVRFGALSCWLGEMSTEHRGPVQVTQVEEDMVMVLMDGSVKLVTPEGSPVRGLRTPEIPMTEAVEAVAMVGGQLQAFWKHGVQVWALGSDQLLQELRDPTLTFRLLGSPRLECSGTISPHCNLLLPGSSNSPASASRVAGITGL

Compound | target | assay | system | setting | scale | measurement | result
CC[C@@H](C)[C@@H](NC(=O)[C@@H](Cc1ccc(O)cc1)NC(=O)[C@H]1CCCN1C(=O)[C@@H](CCCNC(=N)N)NC(=O)[C@H](N)Cc1c[nH]cn1)C(=O)N[C@H](C)C(=O)N[C@H](Cc1c[nH]cn1)C(=O)N[C@H](CCCNC(=N)N)C(=O)N[C@H](CCCCNC(=O)c1cccc(S(=O)(=O)F)c1)C(=O)N[C@H](Cc1ccc(O)cc1)C(=O)N[C@H](CO)C(=O)N[C@H](Cc1ccccc1)C(N)=O | Transferrin receptor protein 1 (Tfrc, Mus musculus, UniProt Q62351) | flow cytometry | RAW264.7 | 6 h, pH 7.4, unit not given | reference: 0 h | surface expression | 0.904 and 0.911
CN1CCN(c2cc(-c3ccncc3)c(-c3ccc4ccccc4c3)nn2)CC1 | SUCNR1 (Homo sapiens, UniProt Q9BXA5) | agonist, FLIPR |  | 12.5 µM |  | activation | 1.6%
O=C(Nc1cnccc1Cl)N1CCN(Cc2ccc3c(c2)OC(F)(F)O3)CC1 | MCHR1 (Homo sapiens, UniProt Q99705) | radioligand binding |  | concentration not given |  | inhibition | 2% and 12%
N#C[C@@H]1CC(F)(F)CN1C(=O)CNC(=O)c1ccnc2ccc(OCCCN3CCN(C(=O)CN4CCN(CC(=O)[O-])CCN(CC(=O)[O-])CC4)CC3)cc12.[18F-].[Al+3] | Fibroblast activation protein alpha (Rattus norvegicus, UniProt A0A9K3Y732) | PET | rat standard diet control | seventh week | reference: myocardium over liver | SUVmax myocardium/liver ratio | 1.91 ± 0.34
C[C@H]1CN(c2n[nH]c3nc(N[C@H]4CC[C@H](NS(=O)(=O)CCC(F)(F)F)CC4)ncc23)CCO1 | ACAD10 (Homo sapiens, UniProt Q6JQN1) | inhibitor, Kinobeads competition profiling |  | 20 µM | reference: vehicle | relative abundance | 1.14
CCOC(=O)COc1ccc2c(=O)c3ccccc3oc2c1 | ache (Electrophorus electricus, UniProt O42275) | enzyme activity |  | 3.36 µM, with: substrate 0.86 mM | higher = faster reaction | reaction velocity | 0.0009 a.u.
O=C(Nc1cccnn1)N1CCC(=Cc2cccc(Oc3ccc(C(F)(F)F)cn3)c2)CC1 | AMPA receptor, rat | binding |  | 50 µM, with: [3H]AMPA |  | inhibition | 13%
O=C(CCl)c1ccoc1 | UCHL1 (Homo sapiens, UniProt P09936) | covalent, intact protein LC-MS |  | 12.5 µM |  | labelling | 8.48%
Cc1ncsc1-c1ccc([C@H](CC(=O)N2CCN(c3ccc(C#Cc4ccc(C(=O)N5CCC(n6cc(-c7ccc8c(c7)CCN8C(=O)Cc7cccc(OC(F)(F)F)c7)c7c(N)ncnc76)CC5)cc4)cn3)CC2)NC(=O)[C@@H]2C[C@@H](O)CN2C(=O)[C@@H](NC(=O)C2(F)CC2)C(C)(C)C)cc1 | RIPK1 (Homo sapiens, UniProt Q13546) | degrader | Jurkat |  |  | Dmax | 98%
CC(C)(C)c1cc(C=C(C#N)C#N)cc(Br)c1O | TRPM8 (Homo sapiens, UniProt Q7Z2W7) | antagonist | HEK293 | 5 µM | reference: control | remaining activity | 82.3 ± 4.38%
COc1cc2nccc(Oc3ccc(NC(=O)c4cc5c(n(-c6ccccc6)c4=O)CCCC5=O)nc3)c2cc1OC | DDR2 (Homo sapiens, UniProt Q16832) | cell viability, CellTiter-Glo | Ba/F3 expressing recombinant kinase |  | reference: DDR2 IC50 over AXL IC50 | selectivity ratio | > 100
[2H]c1c([2H])c([C@]2([2H])CCCN2C(=O)C(C)(C)Oc2ccc3cn[nH]c3c2)c([2H])c([2H])c1C([2H])([2H])[2H] | FLT4 (Homo sapiens, UniProt P35916) | KINOMEscan |  | 1 µM | reference: DMSO control | remaining binding | 69%
CN(C(=O)n1cnc(-c2ccc[n+]([O-])c2)c1)C1CCCCC1 | Carboxylesterase 1C (Ces1c, Rattus norvegicus, UniProt P10959) | enzyme activity, ABPP | rat, brain | oral, 100 mg/kg/day, 7 days | reference: vehicle | fold change | -15
C[N+](C)(C)CCOP(=O)(O)O | Uncharacterized protein (Pelagibacter ubique, UniProt Q4FM26) | differential scanning fluorimetry | Candidatus Pelagibacter ubique | in-house screen |  | thermal shift | 2.29 °C
O=C(c1ccc(Cl)cc1)N1CCN2C(=O)N(OC(=O)N3CCOc4ccccc43)C(=O)C2C1 (centres unmarked) | NOTUM (Homo sapiens, UniProt Q6P988) | MS-based ABPP | SW-620 cells in situ | 10 µM, median ratio | reference: compound over DMSO | probe labelling ratio | 1.02
COc1cc(Nc2ncc(F)c(Nc3ccc4c(n3)NC(=O)C(C)(C)O4)n2)cc(OC)c1OC | STK26 (Homo sapiens, UniProt Q9P289) | binding, KINOMEscan |  | 10 µM, MST4 kinase |  | inhibition | 51%
COc1ccc(N2C(=O)N(c3c(C)cccc3Cl)Cc3cnc(Nc4ccc(C5CCN(C)CC5)cc4OC)nc32)nc1 | MAP4K1 (Homo sapiens, UniProt Q92918) | kinase activity |  | 0.5 µM |  | inhibition | 50%

For quick reference, copied from above:
Compound | target | assay | system | setting | scale | measurement | result
O=C(CCl)c1ccoc1 | UCHL1 (Homo sapiens, UniProt P09936) | covalent, intact protein LC-MS |  | 12.5 µM |  | labelling | 8.48%
CN1CCN(c2cc(-c3ccncc3)c(-c3ccc4ccccc4c3)nn2)CC1 | SUCNR1 (Homo sapiens, UniProt Q9BXA5) | agonist, FLIPR |  | 12.5 µM |  | activation | 1.6%
